Assay results from different studies.
Parts stem from different laboratories: compare values within a part only. Changes are numbered by the printed parent chain.

Sample 1 — method: protein-binding microarray; form: double-stranded DNA, one strand shown; sample: in vitro; concentration: 2540 nM top; setting: 60-bp whole probe; together with: salmon DNA 0.4 mg/ml; reference: random background probes; direction: higher = stronger binding; all sequences stand within: GCCTAGCAC … GTCTTGATTCGCTTGACGCTGCTG
Target: Interferon regulatory factor 3, full length, phosphomimetic (IRF3, Homo sapiens, UniProt Q14653, residues 1-427, S386D/S396D/S398D/S402D/T404D/S405D)
Residues (chain): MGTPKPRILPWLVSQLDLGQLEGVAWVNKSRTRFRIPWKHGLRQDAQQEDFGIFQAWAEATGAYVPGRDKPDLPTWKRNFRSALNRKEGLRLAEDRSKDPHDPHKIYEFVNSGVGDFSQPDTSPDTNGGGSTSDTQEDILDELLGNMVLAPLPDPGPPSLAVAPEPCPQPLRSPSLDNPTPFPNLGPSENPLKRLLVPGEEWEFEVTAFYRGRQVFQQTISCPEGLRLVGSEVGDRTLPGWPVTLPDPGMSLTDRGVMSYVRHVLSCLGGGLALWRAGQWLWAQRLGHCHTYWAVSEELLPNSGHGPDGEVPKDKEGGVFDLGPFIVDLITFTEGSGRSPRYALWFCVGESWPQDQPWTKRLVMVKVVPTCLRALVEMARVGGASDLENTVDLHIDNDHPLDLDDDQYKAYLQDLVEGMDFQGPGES
Strand	fitted relative affinity
TTAGGTCTCAGTTTCGGTTAGTGCTAG	5.39 z-score
GACGGTCTCCTAATCCTGACGTGCTAG	2.19 z-score
TCAAGCTTTTCATTTTTTACTGTGCTA	0.749 z-score
TTAGATTCCAGTTTCGAGTAGTGCTAG	3.55 z-score
GACGGACTGCATATCCTGACGTGCTAG	-0.259 z-score
TTAGGTTTCGACTATCGGTAAGTGCTA	2.46 z-score
AACGATTTCGGGACTGGAGACGTGCTA	1.54 z-score
GACGGGTTCGACTTTCGGGACGTGCTA	0.589 z-score
GACGGTTTCGAGACTGGGGACGTGCTA	3.87 z-score
TTTTTTTTCTTTAAAAGTGAGTGCTAG	2.4 z-score
ATTGCTTTCTCTTTCATTGCGTGCTAG	3.99 z-score
TTAGATATCGGGCATCGATTAGTGCTA	-0.425 z-score
TTAGGACTGGGTCTCGGTGAGTGCTAG	-0.945 z-score
TTAGGTTTCGGTCTCAGTTAGTGCTAG	8.09 z-score
TTAGCTCTCCTACTGCTTTAGTGCTAG	0.28 z-score
ATAGGTCTCGGTCTCGGTTAGTGCTAG	1.14 z-score
GACGATTTCAGTGCCGAGACGTGCTAG	0.793 z-score

Sample 2 — method: RNA Bind-n-Seq; form: RNA; sample: in vitro; concentration: 365 nM; reference: no-protein control; direction: higher = stronger binding
Target: RNA binding protein fox-1 homolog 2, RRM domain, GST-SBP tag (RBFOX2, Homo sapiens, UniProt O43251-10, residues 100-194)
Setting: natural RNA segment, single round, ends assumed
Construct (chain): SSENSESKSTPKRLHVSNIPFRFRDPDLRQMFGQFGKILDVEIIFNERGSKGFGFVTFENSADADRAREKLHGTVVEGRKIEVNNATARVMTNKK
Strand	RBNS enrichment (R)
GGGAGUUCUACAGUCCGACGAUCACUGUGCAUAGGGUAUCCGUUUCAGAGCCUGGUGUUGUGCUAUUUAGAUGUUUGUCUUGCACAACAUUGGCAUGAUUUUUCCGGGAGUUUCAUCAGAUCUGAUUUCUGAGUGGAAUUCUCGGGUGCCAA	0.393
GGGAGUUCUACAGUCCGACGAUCAAUUUUAAGUGGUAAGCAUUUUGCAUUAAAAUAUUCCUAUAAUAUUUUGUCGCUGUUCUUUGUCCUUUAUUCUUUGUUUACUCUCUCGAAAAUAAAAGGGCUAAACUAUUUGGAAUUCUCGGGUGCCAA	0.834
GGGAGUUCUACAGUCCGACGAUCCCACAGUGCUGAGGAAAUCAUAGUGGCAGAAGGAGGAGGUGACUGGUUACAUCCCGUCCAGUCAGGAAGGAAAAGAAAAGGAAAAGUGCCUCGCUGGCUUCCUCCUUUUCUGGAAUUCUCGGGUGCCAA	0.441
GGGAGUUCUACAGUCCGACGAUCUUCCAUUUUGCACUUGCACUAUUGAACAUGACCCUGCCAGAAAUGCAAAGGGAAUGAAAUCCUGAAGCUCAGAGUGAAGUUCAAACCACGGCGUCCCGCAGAGCCUAGUCUGGAAUUCUCGGGUGCCAA	1
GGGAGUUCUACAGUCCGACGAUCUGUGUUCUGUUGUAAAUCAUUUGGCGAGACUGUAUUUUAGUAACUGCUGCCUAACUUCCCUGUGUUCUAUUUGAGAGGCGCCUGUCUGGAUAAAGUUGUCUUGAAAUUUCUGGAAUUCUCGGGUGCCAA	12.7
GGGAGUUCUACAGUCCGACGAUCAGGAUUUACACAACUUUAAAGGGAAGAUAAAUGAACAUCAGAUUUCUAGGUAUAGAACUAUGUUAUUGAAAGGAAAAGGAAAACUGGUGUUUGUUUCUUAGACUCAUGAAUGGAAUUCUCGGGUGCCAA	2.25
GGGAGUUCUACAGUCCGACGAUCUGAAUGAAUAGGUUGUGGCUGUCAACCUCUGGAACCAGAAGUGCCUGUAAGACAGUCCUUCAAGUUUUUACACAGAAGAGAAUUUUGAGUGUCCUCUCUAUGUUUCAAAUUGGAAUUCUCGGGUGCCAA	1.13
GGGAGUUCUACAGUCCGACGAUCGGCUGUUAACCUAUGAUUGUAAAGUAGCUGUAAGAAUUUCCCAGUGAAAUAAAAAAAAAUUUUAAGUGUUCUCGGGGAUGCAUAGAUUCAUCAUUUUCUCCACCUUAAAAUGGAAUUCUCGGGUGCCAA	0.632
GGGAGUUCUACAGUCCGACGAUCACUGGAUGGGUGGAAUAGGGAAGCAGAUCACUUUUGCAUACAAAAACUCUUUCAAACCCAAAAUAUUAUUGGUGGUACAUUUUAAAGUCCAAUUGUGGACUUAAAUUAGUUGGAAUUCUCGGGUGCCAA	0.458
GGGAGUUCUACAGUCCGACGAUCCUCCUCUCCAGGGAGUAACAUCAGCUCAGAGUUUACUGAAGAAUUCAUCUUCACCUGAUAAAGAUGGUUGCUGGUUUGGAAUCUACACCUGCACACUUUUACUUCUUCCGUGGAAUUCUCGGGUGCCAA	0.28
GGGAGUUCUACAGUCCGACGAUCACUAAGGAUAUUCUUUAGCAAGAGAAAAUAUUUUCCCCUUAUCCCCACUGCUGUGGAGGUUUCUGUACCUCGCUUGGAUGCCUGUAAGGAUCCCGGGAGCCUUGCCGCACUGGAAUUCUCGGGUGCCAA	0.318
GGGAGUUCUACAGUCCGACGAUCUUCCUAAGUCUCAAGGGCUAGUUUCCCUGAGGAGCCCAGGCCUAACCCUCUCUCUCUCAAGCUGCCACAUGUAACGCCCUUGCUGCUUCUGUGUGUGGGUGAUUGGAUGUUGGAAUUCUCGGGUGCCAA	0.361

Sample 3 — method: DHFR PCA, deep sequencing; sample: yeast; together with: (+)-ABA 58 µM; reference: wild-type fitted maximum; direction: higher = stronger binding
Target: ABI1, truncated, D143A, DHFR fusion (Arabidopsis thaliana)
Setting: methotrexate growth selection, single substitutions
Starting sequence: PYL1, truncated, DHFR fusion (Arabidopsis thaliana); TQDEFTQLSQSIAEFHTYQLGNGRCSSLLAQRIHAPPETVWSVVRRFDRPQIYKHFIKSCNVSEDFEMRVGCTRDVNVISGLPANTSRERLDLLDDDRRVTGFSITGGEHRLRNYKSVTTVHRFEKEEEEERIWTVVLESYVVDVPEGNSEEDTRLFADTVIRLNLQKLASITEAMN; partner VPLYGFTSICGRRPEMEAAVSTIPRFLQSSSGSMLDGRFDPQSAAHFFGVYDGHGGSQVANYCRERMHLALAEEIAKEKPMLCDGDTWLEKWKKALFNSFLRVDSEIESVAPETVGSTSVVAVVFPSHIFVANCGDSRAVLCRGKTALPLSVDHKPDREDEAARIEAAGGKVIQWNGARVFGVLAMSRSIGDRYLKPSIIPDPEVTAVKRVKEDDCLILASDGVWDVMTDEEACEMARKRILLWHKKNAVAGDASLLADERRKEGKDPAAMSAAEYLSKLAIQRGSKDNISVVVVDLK
Change	relative binding score
G108N	-9.75%
L164K	72.6%
T6C	92.4%
A158P	-4.12%
C25Q	18.4%
Q7K	86.4%
E130W	72.1%
C60P	-3.05%
N177F	76.2%
V76K	-17.9%
I162K	7.09%
E131C	94%
E64P	90.9%
V100E	-2.52%
L169C	1.97%
A84D	6.6%
M68C	79.9%

Sample 4 — method: protein binding microarray; form: double-stranded DNA, one strand shown; sample: in vitro; concentration: not given; reference: not given; direction: higher = stronger binding
Target: Histone acetyltransferase KAT6A, winged helix 1, GST fusion (KAT6A, Homo sapiens, UniProt Q92794, residues 1-85)
Setting: 8-mer, flanks averaged, mean of 2 arrays, mostly near background
Construct (chain): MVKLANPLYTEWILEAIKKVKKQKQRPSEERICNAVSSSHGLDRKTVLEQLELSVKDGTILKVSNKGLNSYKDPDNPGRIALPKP
Strand	E-score
CGCGAATA	0.204
AACTGGAC	-0.146
CGACTAAA	-0.168
AGCCATAG	-0.11
ATCCGCGC	0.386
ATGGACAA	-0.237
AGCTCGTA	-0.196
ATATTCTG	-0.0588
CGCAAATC	0.206
CTCCAGGC	0.00689
ATGTCAAG	-0.158
AATCAAGT	-0.128
GATAAAGA	-0.0593
CCGCACAC	0.287
GATTTACA	0.000945
CCTTCAGC	-0.056
ATGTCCGG	0.183
AGCCCCAT	-0.122

Repeated from above (sample 3):
Change	relative binding score
M68C	79.9%
A158P	-4.12%
C25Q	18.4%
E131C	94%
I162K	7.09%
N177F	76.2%
L164K	72.6%
T6C	92.4%
